{"data": "Assay results from different studies", "cell line": "PC-3", "note": "Protocols differ between the studies behind these lines. ± gives the spread as reported."}
{"Compound": "CCOc1nc(-c2cccc(O)c2)cc(-c2cc3cc(Cl)ccc3nc2N2CCOCC2)c1C#N", "test": "MTT", "how to read": "relative to: WI-38 EC50 over PC-3 IC50", "endpoint": "selectivity ratio", "value": 0.167}
{"Compound": "O=P1(C2CCCCC2)CCCCC1", "test": "ELISA", "setting": "IC50, 72 h", "endpoint": "IL-6 level", "value": "1.8 ± 0.66 pg/mL"}
{"Compound": "Cc1c(Cc2ccccc2)c(=O)oc2c(C)c(OCC(=O)NN=Cc3ccc(Cl)cc3)ccc12", "test": "cell viability, MTT", "endpoint": "IC50", "value": "57.2 mg/L"}
{"Compound": "Cc1ncsc1-c1ccc(CNC(=O)[C@@H]2C[C@@H](O)CN2C(=O)[C@@H](NC(=O)CCCCCCCCCC(=O)N2CCN(CC[C@H](NC(=O)C3(N)CCN(c4ncnc5[nH]ccc45)CC3)c3ccc(Cl)cc3)CC2)C(C)(C)C)cc1", "test": "immunoblot, refers to: PDCD4", "setting": "1 µM, 24 h", "endpoint": "protein level", "value": "increased"}
{"Compound": "CSc1nc(-c2ccc(Cl)cc2)c2c(NC(=O)c3ccccc3)nnc-2[nH]1", "test": "SRB", "setting": "10 µM, NCI60 single-dose screen, prostate cancer", "how to read": "relative to: untreated", "endpoint": "cell growth", "value": "76.3%"}
{"Compound": "C=CCNC(=S)NNC(=O)COc1ccc2c(C)c(CC)c(=O)oc2c1C", "test": "cell viability, MTT", "endpoint": "IC50", "value": "96 mg/L"}
{"Compound": "CCn1cc(-c2cc(Cn3ccnc3)cc3c2CCN([C@H](c2cc(OC)ccn2)C2CC2)C3=O)c(C(F)(F)F)n1", "test": "cell growth, inhibitor", "setting": "120 h", "endpoint": "EC50", "value": "> 30 µM"}
{"Compound": "N=C(Nc1ccccc1)c1cc2c(-c3ccccc3)n[nH]c2c(Nc2ccccc2)n1", "test": "flow cytometry", "setting": "concentration not given, 48 h", "endpoint": "G2/M phase cells", "value": "26%"}
{"Compound": "CC(C)c1ccc(/C=C2\\N=C(SCC(=O)O)N(c3ccccc3)C2=O)cc1", "test": "MTT", "how to read": "relative to: BJ1 over PC-3", "endpoint": "selectivity index", "value": 1.4}
{"Compound": "O=c1ccn(Cc2cn(-c3cc4ccccc4oc3=O)nn2)c(=O)[nH]1", "test": "NCI60 single-dose screen", "setting": "10 µM", "endpoint": "growth percentage", "value": "89.3%"}
{"Compound": "NCc1cc2c(-c3ccccc3)n[nH]c2c(Nc2ccccc2)n1", "test": "flow cytometry", "setting": "IC50, 24 h", "endpoint": "S-phase cells", "value": "17%"}
{"Compound": "C#C[C@@]1(O)[C@@H](CO)O[C@@H](n2ccc3c(N)ncnc32)[C@@H]1O", "test": "SRB", "setting": "NCI-60 screen", "endpoint": "TGI", "value": "3.54 µM"}
{"Compound": "COc1cccc2c1C(=O)c1c(O)c3c(c(O)c1C2=O)C[C@@](O)(C(=O)CO)C[C@@H]3O[C@H]1C[C@H](N)[C@H](O)[C@H](C)O1", "test": "MTT", "how to read": "relative to: BJ1 over PC-3", "endpoint": "selectivity index", "value": 0.8}
{"Compound": "CCCCN1CCN(c2ccc3[nH]c(-c4ccc5[nH]c(-c6ccc(OCC)cc6)nc5c4)nc3c2)CC1", "test": "SRB", "setting": "10 µM, 48 h", "endpoint": "growth percent", "value": "56.7%"}
{"Compound": "CCCOc1nc(-c2cccc(O)c2)cc(-c2cc3ccccc3nc2N2CCOCC2)c1C#N", "test": "MTT", "how to read": "relative to: WI-38 EC50 over PC-3 IC50", "endpoint": "selectivity ratio", "value": 0.781}
{"Compound": "CCOC(=O)CSc1nc(-c2ccc(Cl)cc2)c2c(NC(=O)c3ccccc3)nnc-2[nH]1", "test": "SRB", "setting": "10 µM, NCI60 single-dose screen, prostate cancer", "how to read": "relative to: untreated", "endpoint": "cell growth", "value": "104%"}
{"Compound": "O=C1NC(c2ccccc2)(c2ccccc2)C(=O)N1Cc1cn(-c2c3ccccc3nc3ccccc23)nn1", "test": "NCI60 single-dose screen", "setting": "10 µM", "endpoint": "growth percentage", "value": "78%"}
{"Compound": "CCOc1nc(-c2cccc(O)c2)cc(-c2cc3ccccc3nc2N2CCOCC2)c1C#N", "test": "MTT", "how to read": "relative to: WI-38 EC50 over PC-3 IC50", "endpoint": "selectivity ratio", "value": 0.322}
{"Compound": "COc1cccc2c1C(=O)c1c(O)c3c(c(O)c1C2=O)C[C@@](O)(C(=O)CO)C[C@@H]3O[C@H]1C[C@H](N)[C@H](O)[C@H](C)O1", "test": "MTT", "setting": "72 h", "how to read": "relative to: IC50 HaCaT over IC50 PC-3", "endpoint": "selectivity index", "value": 1}
{"Compound": "CCC(=O)N1CCC(COCC(=O)N2CCN(c3nc(-c4cnc(N)nc4C(F)F)nc(N4CCOC[C@@H]4C)n3)CC2)CC1", "test": "western blot, refers to: phospho-S6 Ser235/Ser236", "setting": "2 h", "endpoint": "IC50", "value": "0.438 µM"}
{"Compound": "Cn1cncc1C1=CN(c2ncnc3[nH]cnc23)CCS1", "setting": "prostate cancer", "endpoint": "TGI", "value": "166 µM"}
{"Compound": "CCCN1CCN(c2ccc3[nH]c(-c4ccc5[nH]c(-c6ccc(C(F)(F)F)cc6)nc5c4)nc3c2)CC1", "test": "SRB", "setting": "10 µM, 48 h", "endpoint": "growth percent", "value": "-68%"}
{"Compound": "C=CC(=O)N1CCC(COCC(=O)N2CCN(c3nc(-c4cnc(N)nc4C(F)F)nc(N4CCOC[C@@H]4C)n3)CC2)CC1", "test": "western blot, refers to: phospho-S6 Ser235/Ser236", "setting": "2 h", "endpoint": "IC50", "value": "0.325 µM"}
{"Compound": "CCNC(=S)NNC(=O)COc1ccc2c(C)c(CC)c(=O)oc2c1C", "test": "cell viability, MTT", "endpoint": "IC50", "value": "133 mg/L"}
{"Compound": "CCCC(CCC)C(=O)OCc1cn(-c2c3ccccc3nc3ccccc23)nn1", "test": "NCI60 single-dose screen", "setting": "10 µM", "endpoint": "growth percentage", "value": "91.6%"}
{"Compound": "COc1ccc(OC)c(-c2nc3ccc(-c4nc5ccc(N6CCN(C)CC6)cc5[nH]4)cc3[nH]2)c1", "test": "SRB", "setting": "10 µM, 48 h", "endpoint": "growth percent", "value": "99.2%"}
{"Compound": "Cc1nc(NC(=O)N2CCC[C@H]2C(N)=O)sc1-c1ccnc(C(C)(C)C(F)(F)F)c1", "test": "immunoblot, refers to: PDCD4", "setting": "1 µM, 24 h", "endpoint": "protein level", "value": "increased"}
{"Compound": "COc1cnc2cccc(N3CCc4c(cc(Cn5ccnc5C)cc4-c4cn(C)nc4C(F)(F)F)C3=O)c2c1", "test": "cell growth, inhibitor", "setting": "120 h", "endpoint": "EC50", "value": "> 30 µM"}
{"Compound": "CCCN1CCN(c2ccc3[nH]c(-c4ccc5[nH]c(-c6ccc(OCC)c(OCC)c6)nc5c4)nc3c2)CC1", "test": "SRB", "setting": "10 µM, 48 h", "endpoint": "growth percent", "value": "-40.6%"}
{"Compound": "Cc1cc(C)n(-c2nc(-c3ccc(Cl)cc3)c3c(NC(=O)c4ccccc4)nnc-3[nH]2)n1", "test": "SRB", "setting": "10 µM, NCI60 single-dose screen, prostate cancer", "how to read": "relative to: untreated", "endpoint": "cell growth", "value": "93.8%"}
{"Compound": "C=CCOc1ccc2c(C)c(CC)c(=O)oc2c1C", "test": "cell viability, MTT", "endpoint": "IC50", "value": "221 mg/L"}
{"Compound": "C[C@H](Nc1ccc2c(c1)OCCn1cc(N3C(=O)OC[C@H]3C(F)F)nc1-2)C(N)=O", "test": "resazurin growth rate inhibition", "setting": "72 h", "endpoint": "GR50", "value": "> 5 µM"}
{"Compound": "NC1(C(=O)N[C@@H](CCO)c2ccc(Cl)cc2)CCN(c2ncnc3[nH]ccc23)CC1", "test": "immunoblot, refers to: PDCD4", "setting": "1 µM, 24 h", "endpoint": "protein level", "value": "increased"}
{"Compound": "CCOc1ccc(-c2nc3cc(-c4nc5cc(N6CCN(C)CC6)ccc5[nH]4)ccc3[nH]2)cc1OCC", "test": "SRB", "setting": "10 µM, 48 h", "endpoint": "growth percent", "value": "17.2%"}
{"Compound": "C#C[C@@]1(O)[C@@H](CO)O[C@@H](n2cc(F)c3c(N)ncnc32)[C@@H]1O", "test": "SRB", "setting": "NCI-60 screen", "endpoint": "TGI", "value": "3.24 µM"}
{"Compound": "CCc1c(C)c2ccc(OCc3nnc(S)n3N)c(C)c2oc1=O", "test": "cell viability, MTT", "endpoint": "IC50", "value": "40.6 mg/L"}
{"Compound": "O=C(Nc1nnc2n3c(nc(-c4ccc(Cl)cc4)c1-2)SCC3=O)c1ccccc1", "test": "SRB", "setting": "10 µM, NCI60 single-dose screen, prostate cancer", "how to read": "relative to: untreated", "endpoint": "cell growth", "value": "101%"}
{"Compound": "CN1CCN(c2ccc3[nH]c(-c4ccc5[nH]c(-c6ccc(C(F)(F)F)cc6)nc5c4)nc3c2)CC1", "test": "SRB", "setting": "10 µM, 48 h", "endpoint": "growth percent", "value": "30.2%"}
{"Compound": "Cc1nc(NC(=O)N2CCC[C@H]2C(N)=O)sc1-c1ccnc(C(C)(C)C(F)(F)F)c1", "test": "resazurin growth rate inhibition", "setting": "72 h", "endpoint": "GR50", "value": "> 5 µM"}
{"Compound": "O=C(Nc1nnc2[nH]c(=S)[nH]c(-c3ccc(Cl)cc3)c1-2)c1ccccc1", "test": "SRB", "setting": "10 µM, NCI60 single-dose screen, prostate cancer", "how to read": "relative to: untreated", "endpoint": "cell growth", "value": "92.8%"}
{"note": "For quick reference, copied from above:"}
{"Compound": "CCCOc1nc(-c2cccc(O)c2)cc(-c2cc3ccccc3nc2N2CCOCC2)c1C#N", "test": "MTT", "how to read": "relative to: WI-38 EC50 over PC-3 IC50", "endpoint": "selectivity ratio", "value": 0.781}
{"Compound": "CCOC(=O)CSc1nc(-c2ccc(Cl)cc2)c2c(NC(=O)c3ccccc3)nnc-2[nH]1", "test": "SRB", "setting": "10 µM, NCI60 single-dose screen, prostate cancer", "how to read": "relative to: untreated", "endpoint": "cell growth", "value": "104%"}
{"Compound": "O=C1NC(c2ccccc2)(c2ccccc2)C(=O)N1Cc1cn(-c2c3ccccc3nc3ccccc23)nn1", "test": "NCI60 single-dose screen", "setting": "10 µM", "endpoint": "growth percentage", "value": "78%"}
{"Compound": "CCOc1nc(-c2cccc(O)c2)cc(-c2cc3ccccc3nc2N2CCOCC2)c1C#N", "test": "MTT", "how to read": "relative to: WI-38 EC50 over PC-3 IC50", "endpoint": "selectivity ratio", "value": 0.322}
{"Compound": "COc1cccc2c1C(=O)c1c(O)c3c(c(O)c1C2=O)C[C@@](O)(C(=O)CO)C[C@@H]3O[C@H]1C[C@H](N)[C@H](O)[C@H](C)O1", "test": "MTT", "setting": "72 h", "how to read": "relative to: IC50 HaCaT over IC50 PC-3", "endpoint": "selectivity index", "value": 1}
{"Compound": "CCC(=O)N1CCC(COCC(=O)N2CCN(c3nc(-c4cnc(N)nc4C(F)F)nc(N4CCOC[C@@H]4C)n3)CC2)CC1", "test": "western blot, refers to: phospho-S6 Ser235/Ser236", "setting": "2 h", "endpoint": "IC50", "value": "0.438 µM"}
